# Published values of several laboratories.
# Each line is one published result; not all experiments were run side by side. ± marks the error that the study gave.
# Cell line: HCT-116
Structure (SMILES),test,test system,conditions,IC50
O=C(CN1C(=O)S/C(=C\c2ccccc2)C1=O)Nc1ccc(C(=O)Nc2ccc(F)cc2)cc1,"cell growth or viability, MTT",,,18.8 µM
CCCCCCCCSc1nc(N)c2c(F)c(C#N)c(F)c(F)c2n1,"cell growth or viability, MTT",,96 h,55.1 µM
CO[C@@H]1[C@@H](O[C@@H]2O[C@H](C)[C@@H](O[C@H]3C[C@@](C)(O)[C@@H](OC(=O)Nc4ccc(C)cc4)[C@H](C)O3)[C@H](N(C)C)[C@H]2O)[C@@H](CC=O)C[C@@H](C)[C@@H](O[C@H]2CC[C@H](N(C)C)[C@@H](C)O2)/C=C/C=C/C[C@@H](C)OC(=O)C[C@H]1O,"cell growth or viability, CCK-8",,72 h,22 µM
CCN1CCC2(CC1)C/C(=N\NC(=O)Nc1ccccc1)c1ccccc1O2,,,48 h,2.99 µM
CC(C)CC(NC(=O)CCn1nc(Cc2ccccc2)c2ccccc2c1=O)C(=O)NN (stereo not drawn),"cell growth or viability, MTT",,48 h,1.58 µM
N=C(N)NCCC[C@H](N)C(=O)N1CCC[C@H]1C(=O)N[C@@H](Cc1ccc(O)cc1)C(N)=O,,,,> 100 µM
O=C(NNc1nc(-c2ccccc2)cs1)c1cc2ccc(O)cc2oc1=O,"cell growth or viability, SRB",,72 h,3.5 µM
Cc1c(C)c(C)[c-](C)c1C.Cc1ccnc(-c2[c-]cccc2)c1.[Cl-].[Ir+3],SRB,,"24 h, 72 h recovery",9.6 ± 0.6 µM
CSc1nc(Nc2ccc(/C(C)=N/NC(=O)c3ccccc3Cl)cc2)c(C#N)c(-c2ccccc2)n1,"cell growth or viability, MTT",,48 h,10.7 µM
O=C(NCCCCCCCNc1n[n+]([O-])c2ccccc2[n+]1[O-])C(F)(F)F,"cytotoxicity, MTT",10% FBS medium,"6 h + 18 h, hypoxia 3% O2",47.9 ± 3.7 µM
Nc1ccccc1NC(=O)c1ccc(Nc2nccc(-c3cn(C4CCCCC4)nn3)n2)cc1,"cell growth or viability, SRB",,72 h,2.13 µM
CCCCSc1nc(N)c2c(F)c(C#N)c(F)c(F)c2n1,"cell growth or viability, MTT",,96 h,6.32 µM
CS/C(=N/N=C(\C)c1ccc(S(=O)(=O)N2CCC(C)CC2)cc1)SCc1ccccc1,"cell growth or viability, MTT",,,51.8 µM
CN1CCC(S(=O)(=O)NC23CCCC(C)(CCC4C2CC4(C)C)C3)CC1 (stereo not drawn),"cell growth or viability, CCK-8",,72 h,31 µM
O=C(NCCCNc1n[n+]([O-])c2ccccc2[n+]1[O-])C(F)(F)F,"cytotoxicity, MTT",,"24 h, normoxia",55.4 ± 4.7 µM
Cc1cc(C)c([N+]#[C][Pt-]([Cl])([Cl])=[C](Nc2cccc(CN[C](NC(C)(C)C)=[Au][Cl])c2)Nc2c(C)cc(C)cc2C)c(C)c1,cell growth or viability,,,> 100 µM
CC(=NN=c1sc(C(=O)c2ccccc2)nn1-c1ccccc1)c1ccc(S(=O)(=O)N2CCC(C)CC2)cc1,"cell growth or viability, MTT",,,3.66 µM
CO[C@@H]1[C@@H](O[C@@H]2O[C@H](C)[C@@H](O[C@H]3C[C@@](C)(O)[C@@H](OC(=O)Nc4ccc(C(F)(F)F)cc4)[C@H](C)O3)[C@H](N(C)C)[C@H]2O)[C@@H](CC=O)C[C@@H](C)[C@@H](O[C@H]2CC[C@H](N(C)C)[C@@H](C)O2)/C=C/C=C/C[C@@H](C)OC(=O)C[C@H]1O,"cell growth or viability, CCK-8",,72 h,5.79 µM
O=C(CCc1nc2cc(Cl)ccc2[nH]c1=O)Nc1ccc(F)cc1,"cell growth or viability, MTT",,,93.1 µM
CCN1CCC2(CC1)C/C(=N\NC(=O)Nc1ccc(OC)cc1)c1ccccc1O2,,,48 h,19.7 ± 0.84 µM
CO[C@@H]1[C@@H](O[C@@H]2O[C@H](C)[C@@H](O[C@H]3C[C@@](C)(O)[C@@H](OC(=O)c4ccccc4)[C@H](C)O3)[C@H](N(C)C)[C@H]2O)[C@@H](CC=O)C[C@@H](C)[C@@H](O[C@H]2CC[C@H](N(C)C)[C@@H](C)O2)/C=C/C=C/C[C@@H](C)OC(=O)C[C@H]1O,"cell growth or viability, CCK-8",,72 h,9.21 µM
CSc1nc(Nc2ccc(/C(C)=N/NC(=O)c3ccc([N+](=O)[O-])cc3[N+](=O)[O-])cc2)c(C#N)c(-c2ccccc2)n1,"cell growth or viability, MTT",,48 h,1.14 µM
Cc1ccc2nc(NC(=O)Cn3cc(COc4ccc(/C=N/Nc5cc([N+](=O)[O-])cc([N+](=O)[O-])c5)cc4)nn3)sc2c1,"cell growth or viability, MTT",,48 h,167 µM
O=C(NCCCCCCCCNc1n[n+]([O-])c2ccccc2[n+]1[O-])C(F)(F)F,"cytotoxicity, MTT",10% FBS medium,"6 h + 18 h, hypoxia 3% O2",50.5 ± 7.1 µM
CCN1C(=O)CS/C1=N/N=C(\C)c1c(O)c2ccccc2oc1=O,"cell growth or viability, MTT",,48 h,10.8 µM
COc1cc(OC)c2c(c1)OCC(c1cc(OC)c(OC)cc1OC)C2=NO (stereo not drawn),"cell growth or viability, MTT",,72 h,138 µM
O=c1[nH]c2ccccc2nc1/C=C/C=C/c1ccccc1,"cell growth or viability, MTT",,72 h,12.7 µM
CC(C)c1ccc2c(c1)CCC1[C@](C)(C(=O)OCCSc3nc(O)c(C#N)c(-c4ccccc4O)n3)CCC[C@]21C (stereo partly drawn),"cell growth or viability, MTT",,48 h,9.53 to 19.4 µM
COC(=O)Cn1c(=O)c(Cc2ccccc2)nc2ccccc21,"cell growth or viability, MTT",,72 h,0.438 µM
CSc1nc(Nc2ccc(C(=O)N/N=C/c3ccccc3Cl)cc2)c(C#N)c(-c2ccccc2)n1,"cell growth or viability, MTT",,48 h,30.2 µM
NNC(=O)CNC(=O)CCn1nc(Cc2ccccc2)c2ccccc2c1=O,"cell growth or viability, MTT",,48 h,16.4 µM
CC(C)c1cccc(C(C)C)c1[N+]#[C][Pd-]([Cl])([Cl])=[C](Nc1cccc(CN[C](NC(C)(C)C)=[Au][Cl])c1)Nc1c(C(C)C)cccc1C(C)C,cell growth or viability,,,> 100 µM
NC1=N[N+](=Cc2c3ccccc3cc3ccccc23)[Ga-3]23([S]1)([S]C(N)=N[N+]2=Cc1c2ccccc2cc2ccccc12)[S]C(N)=N[N+]3=Cc1c2ccccc2cc2ccccc12,,,48 h,17.7 ± 2.2 µM
CC(C)c1cccc(C(C)C)c1[N+]#[C][Pt-2]([Cl])([Cl])[C]#[N+]c1c(C(C)C)cccc1C(C)C,cell growth or viability,,,0.6 µM
COC(=O)CNC(=O)CNC(=O)CNC(=O)COc1ccc2c(C)cc(=O)oc2c1,"cell growth or viability, MTT",,,219 µM
CC(C)(C)N=[C](NCc1cccc(N)c1)[AuH][Cl],cell growth or viability,,,4.4 µM
COc1cc2c(cc1-c1coc3c(CC=C(C)C)c(OC)c(OC)cc3c1=O)OCO2,"cell growth or viability, MTT",,72 h,23.2 µM
Cc1cc(C)c([N+]#[C][Pt-]([Cl])([Cl])=[C](Nc2ccc(CN[C](Nc3c(C(C)C)cccc3C(C)C)=[Au][Cl])cc2)Nc2c(C)cc(C)cc2C)c(C)c1,cell growth or viability,,,> 100 µM
CC12CCCC(n3cc(C(=O)N4CC(N)C4)nn3)(C1)C1CC(C)(C)C1CC2 (stereo not drawn),"cell growth or viability, CCK-8",,72 h,13.7 µM

# Excerpt of the above:
Structure (SMILES),test,test system,conditions,IC50
O=C(CCc1nc2cc(Cl)ccc2[nH]c1=O)Nc1ccc(F)cc1,"cell growth or viability, MTT",,,93.1 µM
CCN1CCC2(CC1)C/C(=N\NC(=O)Nc1ccc(OC)cc1)c1ccccc1O2,,,48 h,19.7 ± 0.84 µM
